Measured values pooled from the literature.
“And” joins repeats or separate records; there may be more than shown. ± marks the error that the study gave.

`COc1cc2ncnc(Oc3ccc(Nc4nccc5[nH]cc(-c6ccc(F)cc6)c(=O)c45)cc3F)c2cc1OC` — result for “body weight gain”: 32.2% (Sprague-Dawley rat; oral, 50 mg/kg once daily, 28 days; reference: vehicle).
For `C=C/C=C/C[C@@H](C)[C@@H](O)[C@H]1C(=O)N[C@@H](CC)C(=O)N(C)CC(=O)N(C)[C@@H](CC(C)C)C(=O)N[C@@H](C(C)C)C(=O)N(C)[C@@H](CC(C)C)C(=O)N[C@@H](C)C(=O)N[C@H](C)C(=O)N(C)[C@@H](CC(C)C)C(=O)N(C)[C@@H](CC(C)C)C(=O)N(C)[C@@H](C(C)C)C(=O)N1C`, “mean arterial pressure increase” read 9 ± 2 mmHg (radiotelemetry; Wistar Kyoto rats, male; ip, 0.5 mg/kg/day, over 28 days, gradual rise; reference: vehicle).
Under “share of plasma AUC(0-72h)”, `O=C1CC[C@H](N2Cc3cc(N4CCNCC4)ccc3C2=O)C(=O)N1` is recorded as 12.2% (female Sprague-Dawley rat, pooled plasma; oral, 20 mg/kg).
With `CCn1ccc(-c2cc(-c3cnn(C)c3)cc([C@@H](C)NC(=O)c3cc(OCCN(C)C)ccc3C)c2)n1` the t1/2 was 2.76 h (C57BL/6J mice, male, plasma; iv, 10 mg/kg).
The MRT(0-t) of `CCN1CC2(COC)C(O)CC(OC)C34C5CC6(O)C(OC)C(O)C(O)(C5C6OC(=O)c5ccccc5)C(C(OC)C23)C14` (stereo not drawn) is reported as 5.19 ± 0.413 h (Sprague-Dawley rat, plasma; oral, dose not given, with NADES in PCW extract).
For `CCCCCCCCCCCCCCCC(=O)N[C@@H](CCC(=O)NCCOCCOCCC(=O)NCCOCCOCCC(=O)NCCCC[C@H](NC(=O)[C@H](CC(=O)O)NC(=O)[C@H](CC(C)C)NC(=O)[C@H](Cc1ccc(O)cc1)NC(=O)[C@H](CCCCN)NC(=O)[C@H](CO)NC(=O)[C@H](Cc1ccc(O)cc1)NC(=O)[C@H](CC(=O)O)NC(=O)[C@H](CO)NC(=O)[C@@H](NC(=O)[C@H](Cc1ccccc1)NC(=O)[C@@H](NC(=O)CNC(=O)[C@H](CCC(N)=O)NC(=O)[C@@H](CO)NC(=O)[C@@H](N)Cc1c[nH]cn1)[C@@H](C)O)[C@@H](C)O)C(=O)N[C@@H](CCCNC(=N)N)C(=O)N[C@@H](CCCNC(=N)N)C(=O)N[C@@H](C)C(=O)N[C@@H](CCC(N)=O)C(=O)N[C@@H](CC(=O)O)C(=O)N[C@@H](Cc1ccccc1)C(=O)N[C@H](C(=O)N[C@@H](CCC(N)=O)C(=O)N[C@@H](Cc1c[nH]c2ccccc12)C(=O)N[C@@H](CC(C)C)C(=O)N[C@@H](CC(C)C)C(=O)N[C@@H](CC(N)=O)C(=O)N[C@H](C(=O)NCC(=O)NCC(=O)N1CCC[C@H]1C(=O)N[C@@H](CO)C(=O)N[C@@H](CO)C(=O)NCC(=O)N[C@@H](C)C(=O)N1CCC[C@H]1C(=O)N1CCC[C@H]1C(=O)N1CCC[C@H]1C(=O)N[C@@H](CO)C(N)=O)[C@@H](C)O)C(C)C)C(=O)O`, the AUC(0-t) was 62.3 ± 19.5 ng·h/mL (rhesus monkey, both sexes, plasma; subcutaneous, 20 µg/kg, multiple doses, day 1).
`N=C(N)NCCC[C@H](NC(=O)[C@H](CCCNC(=N)N)NC(=O)[C@H](CCCNC(=N)N)NC(=O)[C@H](CCC(N)=O)NC(=O)[C@H](CCCNC(=N)N)NC(=O)[C@H](CCCNC(=N)N)NC(=O)[C@H](CCCCN)NC(=O)[C@H](CCCCN)NC(=O)[C@H](CCCNC(=N)N)NC(=O)CNC(=O)[C@H](Cc1ccc(O)cc1)NC(=O)[C@H](Cc1ccccc1)NC(=O)[C@H](Cc1ccccc1)NC(=O)[C@H](Cc1ccccc1)NC(=O)Cc1ccc2ccccc2c1)C(=O)O` has a health score of 5 (C57BL/6 mice; intraperitoneal, 10 mg/kg, 48 h; direction not given).
With `C#Cc1c(F)ccc2cc(O)cc(-c3ncc4c(N5CC6CCC(C5)N6C(=O)OC(CCC)OC(=O)CCC)nc(OC[C@@]56CCCN5C[C@H](F)C6)nc4c3F)c12` (stereo partly drawn) the t1/2 was 0.0808 h (item: prodrug; mouse whole blood; 1 µM).
With `CN1Cc2cc(Cl)ccc2-n2c(nnc2C2CCN(c3cccc(F)n3)CC2)C1` the concentration was 38.7 ± 5.71 ng/mL (Sprague-Dawley rats male, pituitary; intravenous, 0.03 mg/kg, 5 min).
For `C/C(=N\OCCCN1CCCCC1)c1ccc(C(F)(F)F)cc1`, the AUC(0-t) was 4620 ± 1550 ng·h/mL (mouse, plasma; oral, 50 mg/kg once daily, day 7).
`CSCC[C@H](N)C(=O)N[C@@H](C)C(=O)N[C@@H](CCCNC(=N)N)C(=O)N[C@@H](CCCNC(=N)N)C(=O)N[C@@H](CC(=O)O)C(=O)N[C@@H](CCCCN)C(=O)N[C@H](C(=O)N[C@@H](CC(=O)O)C(=O)N[C@@H](Cc1ccccc1)C(=O)N[C@@H](C)C(=O)N[C@@H](CCCNC(=N)N)C(=O)N[C@@H](CCCNC(=N)N)C(=O)N[C@@H](CCCNC(=N)N)C(=O)N[C@@H](CCCNC(=N)N)C(=O)NCCCCCC(=O)NCCCCC(NC(=O)CCCCCNC(=O)[C@H](CCCNC(=N)N)NC(=O)[C@H](CCCNC(=N)N)NC(=O)[C@H](CCCNC(=N)N)NC(=O)[C@H](CCCNC(=N)N)NC(=O)[C@H](C)NC(=O)[C@H](Cc1ccccc1)NC(=O)[C@H](CC(=O)O)NC(=O)[C@@H](NC(=O)[C@H](CCCCN)NC(=O)[C@H](CC(=O)O)NC(=O)[C@H](CCCNC(=N)N)NC(=O)[C@H](CCCNC(=N)N)NC(=O)[C@H](C)NC(=O)[C@@H](N)CCSC)[C@@H](C)O)C(=O)NCCCCC(NC(=O)C(CCCCNC(=O)CCCCCNC(=O)[C@H](CCCNC(=N)N)NC(=O)[C@H](CCCNC(=N)N)NC(=O)[C@H](CCCNC(=N)N)NC(=O)[C@H](CCCNC(=N)N)NC(=O)[C@H](C)NC(=O)[C@H](Cc1ccccc1)NC(=O)[C@H](CC(=O)O)NC(=O)[C@@H](NC(=O)[C@H](CCCCN)NC(=O)[C@H](CC(=O)O)NC(=O)[C@H](CCCNC(=N)N)NC(=O)[C@H](CCCNC(=N)N)NC(=O)[C@H](C)NC(=O)[C@@H](N)CCSC)[C@@H](C)O)NC(=O)CCCCCNC(=O)[C@H](CCCNC(=N)N)NC(=O)[C@H](CCCNC(=N)N)NC(=O)[C@H](CCCNC(=N)N)NC(=O)[C@H](CCCNC(=N)N)NC(=O)[C@H](C)NC(=O)[C@H](Cc1ccccc1)NC(=O)[C@H](CC(=O)O)NC(=O)[C@@H](NC(=O)[C@H](CCCCN)NC(=O)[C@H](CC(=O)O)NC(=O)[C@H](CCCNC(=N)N)NC(=O)[C@H](CCCNC(=N)N)NC(=O)[C@H](C)NC(=O)[C@@H](N)CCSC)[C@@H](C)O)C(N)=O)[C@@H](C)O` (stereo partly drawn) gave a tissue distribution of 31.6% and 47.8% and 53.4% (C57BL/6 mouse female, stomach; dose not given, 3 h; reference: total).
`O=C1NC2(CC2)COc2ncc(F)cc2[C@H]2COCCN2c2ccn3ncc1c3n2`: “mean corpuscular volume” 57.3 ± 1.6 fL (Sprague-Dawley rat, female, blood; oral, 10 mg/kg/day, 4 weeks, end of recovery, subacute toxicity).
The mortality of `Nc1nonc1-c1nnc2c(n1)-c1ccccc1C2=O` is reported as 66.7% (Balb/c mouse; intraperitoneal, 30 mg/kg, 3 weeks, repeated injections).
For `Cc1nnc(-c2ccc(CC(=O)NCCCC[C@H](NC(=O)c3ccc(OCc4ccc(B(O)O)cc4)c(-c4nc5ccccc5c(=O)[nH]4)c3)C(=O)NCC(=O)NCC(=O)NCC(=O)N[C@@H](Cc3ccccc3)C(=O)N[C@@H](Cc3ccccc3)C(=O)O)cc2)nn1`, the compound remaining was 102% (chemical stability; human, serum; 100 µM, 4.98 min).
With `CC(=O)NCCCC[C@@H]1NC(=O)[C@H](Cc2c[nH]c3c(C)cccc23)NC(=O)[C@H]([C@@H](C)O)NC(=O)[C@H](CC(N)=O)NC(=O)[C@@H](NC(C)=O)C(C)(C)SSC(C)(C)[C@@H](C(=O)N[C@@H](Cc2ccc(OCCN)cc2)C(=O)N[C@@H](Cc2ccc3ccccc3c2)C(=O)NC2(C(=O)N[C@@H](CCC(=O)O)C(=O)N[C@@H](CC(N)=O)C(=O)N[C@@H](Cc3cccnc3)C(=O)N(C)CC(N)=O)CCOCC2)NC1=O` the unbound fraction was 52.1 ± 3.2% (equilibrium dialysis; rat, plasma; 0.1 µM).
For `CC(C)[C@H](NC(=O)[C@H](Cc1c[nH]c2ccccc12)NC(=O)[C@H](CCCNC(=N)N)NC(=O)[C@H](CCCNC(=N)N)NC(=O)[C@@H](NC(=O)[C@@H](NC(=O)[C@H](CCCNC(=N)N)NC(=O)[C@@H](NC(=O)[C@@H](NC(=O)[C@H](CCCNC(=N)N)NC(=O)[C@H](CCCNC(=N)N)NC(=O)[C@@H](NC(=O)[C@H](Cc1c[nH]c2ccccc12)NC(=O)[C@H](CCCNC(=N)N)NC(=O)[C@H](CCCNC(=N)N)NC(=O)[C@@H](NC(=O)[C@H](CCCNC(=N)N)NC(=O)[C@H](CCCNC(=N)N)NC(=O)[C@@H](NC(=O)[C@H](Cc1c[nH]c2ccccc12)NC(=O)[C@H](CCCNC(=N)N)NC(=O)[C@@H](N)CCCNC(=N)N)C(C)C)C(C)C)C(C)C)C(C)C)C(C)C)C(C)C)C(C)C)C(=O)N[C@@H](CCCNC(=N)N)C(=O)N[C@@H](CCCNC(=N)N)C(=O)O`, “dose in liver” read 7.2 ± 5.2% (CD-1 mice; reference: dose).
`CC[C@H](C)[C@H](NC(=O)[C@H](CCCCN)NC(=O)CNC(=O)[C@H](CC(C)C)NC(=O)[C@H](Cc1ccccc1)NC(=O)[C@H](CCCCN)NC(=O)[C@H](CO)NC(=O)[C@H](Cc1ccccc1)NC(=O)[C@H](Cc1c[nH]c2ccccc12)NC(=O)[C@H](CCC(N)=O)NC(=O)[C@@H](NC(=O)[C@H](Cc1ccccc1)NC(=O)CCCCCNC(=O)CN1CCN(CC(=O)O)CCN(CC(=O)O)CCN(CC(=O)O)CC1)C(C)C)C(=O)N[C@@H](CCC(=O)O)C(=O)N1CCC[C@H]1C(=O)N[C@@H](CC(=O)O)C(=O)N[C@H](C(=O)N[C@@H](CO)C(=O)N[C@@H](CCC(N)=O)C(=O)N[C@H](C(=O)N[C@@H](CCC(N)=O)C(=O)N[C@@H](CC(=O)O)C(=O)N1CCC[C@H]1C(=O)N[C@@H](CC(N)=O)C(=O)N[C@@H](CC(=O)O)C(=O)N[C@@H](CCC(N)=O)C(=O)N[C@@H](Cc1ccc(O)cc1)C(=O)N[C@@H](CCC(=O)O)C(=O)N1CCC[C@H]1C(=O)N[C@@H](Cc1ccccc1)C(=O)O)C(C)C)C(C)C` [copper-64 labelled] has an SUVmean of 1.1 SUV (dynamic PET; mouse, CT26 tumour, untreated, tumour; intravenous, 100 µCi/mouse, 1500 s).
Under “organ absorbed dose”, `CC(C)C[C@@H](NC(=O)[C@@H](CCCNC(=N)N)NC(=O)[C@@H](Cc1c[nH]cn1)NC(=O)[C@@H](Cc1c[nH]c2ccccc12)NC(=O)[C@@H](Cc1c[nH]cn1)NC(=O)[C@@H](Cc1ccccc1)NC(=O)[C@H](NC(=O)[C@@H](Cc1ccc(O)cc1)NC(=O)CNC(=O)CNC(=O)CCOCCOCCOCCNC(=O)CN1CCN(CC(=O)O)CCN(CC(=O)O)CC1)[C@H](C)O)C(=O)N[C@H](CC(N)=O)C(=O)N1CCC[C@@H]1C(=O)O` [gallium-68 labelled] is recorded as 0.00988 ± 0.000151 mSv/MBq (OLINDA/EXM; adult male human, stomach wall; extrapolated from C57BL/6 mice).

A few entries again:
For `C=C/C=C/C[C@@H](C)[C@@H](O)[C@H]1C(=O)N[C@@H](CC)C(=O)N(C)CC(=O)N(C)[C@@H](CC(C)C)C(=O)N[C@@H](C(C)C)C(=O)N(C)[C@@H](CC(C)C)C(=O)N[C@@H](C)C(=O)N[C@H](C)C(=O)N(C)[C@@H](CC(C)C)C(=O)N(C)[C@@H](CC(C)C)C(=O)N(C)[C@@H](C(C)C)C(=O)N1C`, “mean arterial pressure increase” read 9 ± 2 mmHg (radiotelemetry; Wistar Kyoto rats, male; ip, 0.5 mg/kg/day, over 28 days, gradual rise; reference: vehicle).
`CC[C@H](C)[C@H](NC(=O)[C@H](CCCCN)NC(=O)CNC(=O)[C@H](CC(C)C)NC(=O)[C@H](Cc1ccccc1)NC(=O)[C@H](CCCCN)NC(=O)[C@H](CO)NC(=O)[C@H](Cc1ccccc1)NC(=O)[C@H](Cc1c[nH]c2ccccc12)NC(=O)[C@H](CCC(N)=O)NC(=O)[C@@H](NC(=O)[C@H](Cc1ccccc1)NC(=O)CCCCCNC(=O)CN1CCN(CC(=O)O)CCN(CC(=O)O)CCN(CC(=O)O)CC1)C(C)C)C(=O)N[C@@H](CCC(=O)O)C(=O)N1CCC[C@H]1C(=O)N[C@@H](CC(=O)O)C(=O)N[C@H](C(=O)N[C@@H](CO)C(=O)N[C@@H](CCC(N)=O)C(=O)N[C@H](C(=O)N[C@@H](CCC(N)=O)C(=O)N[C@@H](CC(=O)O)C(=O)N1CCC[C@H]1C(=O)N[C@@H](CC(N)=O)C(=O)N[C@@H](CC(=O)O)C(=O)N[C@@H](CCC(N)=O)C(=O)N[C@@H](Cc1ccc(O)cc1)C(=O)N[C@@H](CCC(=O)O)C(=O)N1CCC[C@H]1C(=O)N[C@@H](Cc1ccccc1)C(=O)O)C(C)C)C(C)C` [copper-64 labelled] has an SUVmean of 1.1 SUV (dynamic PET; mouse, CT26 tumour, untreated, tumour; intravenous, 100 µCi/mouse, 1500 s).
The mortality of `Nc1nonc1-c1nnc2c(n1)-c1ccccc1C2=O` is reported as 66.7% (Balb/c mouse; intraperitoneal, 30 mg/kg, 3 weeks, repeated injections).
